Literature values that unrelated publications cite.
Numbers after ± are the reported error. ≈ marks a conversion by molar mass, not a printed value.

SMILES = N#CC(=Cc1ccc(O)cc1)C(=O)O; cell line = human neutrophils; test = anion exchange, inhibitor; conditions = added: Cl-; endpoint = Ki; result = 290000 nM
SMILES = O=C1[O][Pt]2([NH][C@@H]3CCCC[C@H]3[NH]2)[O]C1=O; cell line = NCI60 panel; conditions = mean over panel; endpoint = GI50; result = 2800 nM
SMILES = COc1ccc(C(c2ccc(OC)cc2)C(Cl)(Cl)Cl)cc1; cell line = MCF7; test = cell proliferation; conditions = 10% FBS; endpoint = EC50; result = 1040 nM
SMILES = Cc1ccc(C(=O)Nc2ccc(CN3CCN(C)CC3)c(C(F)(F)F)c2)cc1C#Cc1cnc2cccnn12; cell line = MCF-7; endpoint = IC50; result = 4510 nM
SMILES = C/C=C/C[C@H](C)[C@@H](OC)[C@@H](C)[C@H](O)C[C@H]1OC(=O)C=C[C@H]1CC; cell line = A2780 ovarian cancer; test = cell growth; endpoint = MIC; result = 0.026 µM (≈ 8.44 ng/mL)
SMILES = O=C([O-])CN1CCN(CC(=O)[O-])CCN(CC(=O)NCC2CCC(C(=O)N[C@@H](Cc3ccc4ccccc4c3)C(=O)NCCCC[C@H](NC(=O)N[C@@H](CCC(=O)O)C(=O)O)C(=O)O)CC2)CCN(CC(=O)[O-])CC1.[177Lu+3] (stereo partly drawn); cell line = LNCaP; test = gamma counting; conditions = 3 h; endpoint = internalized fraction; result = 75%
SMILES = O=C1N[C@@H]2CCCC[C@H]2N[C@H]1c1c[nH]c2ncccc12; cell line = MRC-5 fibroblasts; test = cytotoxicity; endpoint = IC50; result = > 100000 nM
SMILES = CCC(=C(c1ccc(O)cc1)c1ccc(O)cc1)[c-]1cccc1.[Fe+2].c1cc[cH-]c1; cell line = MCF7; endpoint = IC50; result = 700 nM
SMILES = CP(C)(=O)c1ccc(Nc2nc(C3CCCC3)nc3c2ncn3CCc2cccc(O)c2)cc1; cell line = Mo7e; test = cell growth; endpoint = GI50; result = 108 nM
SMILES = CC=CCC(C)C(O)C(C)C(O)CC1OC(=O)C=CC1CC (stereo not drawn); cell line = A2780; test = cell growth; endpoint = GI50; result = 29.6 nM
SMILES = C[C@@H]1CC[C@H]2[C@@H](C)C(=O)O[C@@H]3O[C@@]4(C)CC[C@@H]1[C@]32OO4; cell line = CCRF-CEM; test = cell viability; endpoint = IC50; result = 36900 ± 6900 nM
SMILES = COc1c(C(=O)/C=C/[c-]2cccc2)c(O)cc2occc12.[Fe+2].c1cc[cH-]c1; cell line = MCF7; endpoint = IC50; result = 17200 nM

A few entries again:
SMILES = CCC(=C(c1ccc(O)cc1)c1ccc(O)cc1)[c-]1cccc1.[Fe+2].c1cc[cH-]c1; cell line = MCF7; endpoint = IC50; result = 700 nM
SMILES = CP(C)(=O)c1ccc(Nc2nc(C3CCCC3)nc3c2ncn3CCc2cccc(O)c2)cc1; cell line = Mo7e; test = cell growth; endpoint = GI50; result = 108 nM
